Measured values pooled from the literature.
Compare with care: the assays were run in different laboratories. ± gives the spread as reported.
Cell line: MDA-MB-231

Compound = CCCc1cc2cc(-n3nc(CC)c4c3CC(C)(C)CC4=O)cc(N3CCC(O)CC3)c2c(=O)[nH]1; assay = Western blot; setting = concentration not given, 24 h; measurement = c-Src level; result = no effect
Compound = CC(=O)[O][Pd][c]1ccccc1-n1nc(C)cc1C.CC(=O)[O][Pd][c]1ccccc1-n1nc(C)cc1C; assay = PI flow cytometry; setting = 25 µM, 24 h; measurement = G2 phase cells; result = 24.9 ± 2.05%
Compound = COc1ccc(CNC[C@@](O)(COCc2ccc(F)cc2)[C@@H]2CC[C@@H](C)C[C@H]2OCc2ccc(F)cc2)cc1; assay = cell growth or viability, MTT; setting = 30 µM, 72 h; measurement = inhibition; result = 99%
Compound = CC(=O)OCC1=C2C(C)=CC(C)=[N+]2[B-](C)(C)n2c(C)cc(C)c21; assay = cell viability, MTT; setting = concentration not given, 4 h, irradiated 15 min up to 470 nm; measurement = EC50; result = > 50000 nM
Compound = CCc1c(C)c2ccc(OC(C)C)c(C)c2oc1=O; assay = cell growth or viability, MTT; setting = 1000 µg/mL; measurement = viability; result = 2.95%
Compound = Cc1cc(-c2ccc(S(=O)(=O)C3CC(C(=O)NC4(C#N)CC4)N(C(=O)C4(C(F)(F)F)CC4)C3)c(C(F)(F)F)c2)ccn1 (stereo not drawn); assay = Western blot; setting = concentration not given, added: ionizing radiation 10 Gy; measurement = cleaved PARP1 level; result = increased
Compound = Cc1nc2c(F)cc(-c3nc(Nc4ccc(CNC(=O)CCCCCCC(=O)NO)cc4)ncc3F)cc2n1C(C)C; assay = cell growth or viability, CCK-8; setting = 0.3 µM, 48 h; measurement = inhibition; result = 98.7%
Compound = CC(=O)[O][Pd][c]1ccccc1N1N=C(C)C(C)(C)C1=O.CC(=O)[O][Pd][c]1ccccc1N1N=C(C)C(C)(C)C1=O; assay = JC-1 flow cytometry; setting = 25 µM, 24 h; measurement = cells with decreased ΔΨm; result = 9.28 ± 1.21%
Compound = CCCNC(=O)[C@H]1O[C@@H]1C(=O)N[C@H](C(=O)N1CCC[C@H]1C(=O)OCC1=C2C(C)=CC(C)=[N+]2[B-](C)(C)n2c(C)cc(C)c21)[C@@H](C)CC; assay = cell viability, MTT; setting = concentration not given, 72 h, irradiated 15 min up to 470 nm; measurement = EC50; result = 780 ± 140 nM
Compound = COc1ccccc1CNC[C@](O)(COCc1ccccc1)[C@@H]1CC[C@@H](C)C[C@H]1OCc1ccccc1; assay = cell growth or viability, MTT; setting = 10 µM, 72 h; measurement = inhibition; result = 95.7%
Compound = CC(=O)OC[C@H]1O[C@@H](n2cc(CSc3nc4ccccc4n3Cc3cn([C@@H]4O[C@H](COC(C)=O)[C@@H](OC(C)=O)C(OC(C)=O)[C@H]4OC(C)=O)nn3)nn2)[C@H](OC(C)=O)C(OC(C)=O)[C@@H]1OC(C)=O (stereo in doubt); assay = MTT; setting = 3.91 ppm; measurement = cytotoxicity; result = 58.5%
Compound = COc1ccc(CNC[C@](O)(COCc2ccccc2)[C@@H]2CC[C@@H](C)C[C@H]2OCc2ccccc2)cc1; assay = cell growth or viability, MTT; setting = 10 µM, 72 h; measurement = inhibition; result = 97.9%
Compound = O=C(/C=C/c1ccccc1)Nc1cc(-c2ccnc(N3CCC(CO)CC3)c2)ccn1; assay = cell growth or viability, MTT; setting = 5 µM; measurement = inhibition; result = 77.4%
Compound = Oc1ccnc(-c2cc(O)ccn2)c1.[Cl-].[Cl-].[Ru+2].c1ccc(-c2ccnc3c2ccc2c(-c4ccccc4)ccnc23)cc1.c1ccc(-c2ccnc3c2ccc2c(-c4ccccc4)ccnc23)cc1; assay = cell viability; scale = baseline: dark EC50 over light EC50; measurement = phototoxicity index; result = 100
Compound = COc1ccc(COC[C@](O)(CNCc2ccc(F)cc2)[C@@H]2CC[C@@H](C)C[C@H]2OCc2ccc(OC)cc2)cc1; assay = cell growth or viability, MTT; setting = 30 µM, 72 h; measurement = inhibition; result = 100%
